# Measured values gathered from unrelated publications.
# Lines come from different studies, so protocols differ. Numbers after ± are the reported error.
SMILES,test,system,setting,tissue uptake
CC[C@H](C)[C@H](NC(=O)[C@H](CCCCN)NC(=O)CNC(=O)[C@H](CC(C)C)NC(=O)[C@H](Cc1ccccc1)NC(=O)[C@H](CCCCN)NC(=O)[C@H](CO)NC(=O)[C@H](Cc1ccccc1)NC(=O)[C@H](Cc1c[nH]c2ccccc12)NC(=O)[C@H](CCC(N)=O)NC(=O)[C@@H](NC(=O)[C@H](Cc1ccccc1)NC(=O)CCCCCNC(=O)CN1CCN(CC(=O)O)CCN(CC(=O)O)CCN(CC(=O)O)CC1)C(C)C)C(=O)N[C@@H](CCC(=O)O)C(=O)N1CCC[C@H]1C(=O)N[C@H](CC(=O)O)C(=O)N[C@H](C(=O)N[C@@H](CO)C(=O)N[C@@H](CCC(N)=O)C(=O)N[C@H](C(=O)N[C@@H](CCC(N)=O)C(=O)N[C@@H](CC(=O)O)C(=O)N1CCC[C@H]1C(=O)N[C@@H](CC(N)=O)C(=O)N[C@@H](CC(=O)O)C(=O)N[C@@H](CCC(N)=O)C(=O)N[C@@H](Cc1ccc(O)cc1)C(=O)N[C@@H](CCC(=O)O)C(=O)N1CCC[C@H]1C(=O)N[C@@H](Cc1ccccc1)C(=O)O)C(C)C)C(C)C [copper-64 labelled],,"C57BL/6 mice, male, MC-38 tumour-bearing, kidneys","2 h, vehicle-treated",34.1 ± 3.7 %ID/g
CSCC[C@H](NC(=O)CNC(=O)[C@H](CCCCN)NC(=O)[C@H](CC(C)C)NC(=O)[C@@H]1CCCN1C(=O)[C@H](CO)NC(=O)[C@H](Cc1c[nH]cn1)NC(=O)[C@H](Cc1c[nH]c2ccccc12)NC(=O)[C@H](CCCNC(=N)N)NC(=O)[C@H](CC(C)C)NC(=O)[C@H](CCCNC(=N)N)NC(=O)[C@H](Cc1c[nH]c2ccccc12)NC(=O)[C@H](CS)NC(=O)CCCCCNC(=O)CN1CCN(CC(=O)O)CCN(CC(=O)O)CCN(CC(=O)O)CC1)C(=O)O [copper-64 labelled],ex vivo biodistribution,"male C57BL/6J mice, bone","intravenous, 1.85 MBq, 2 h, B16-F10 tumour-bearing",1.83 %ID/g
CC(C)C[C@@H](NC(=O)[C@@H](CCCNC(=N)N)NC(=O)[C@@H](Cc1c[nH]cn1)NC(=O)[C@@H](Cc1c[nH]c2ccccc12)NC(=O)[C@@H](Cc1c[nH]cn1)NC(=O)[C@@H](Cc1ccccc1)NC(=O)[C@H](NC(=O)[C@@H](Cc1ccc(O)cc1)NC(=O)CNC(=O)CNC(=O)CCOCCOCCOCCNC(=O)CN1CCN(CC(=O)O)CCN(CC(=O)O)CC1)[C@H](C)O)C(=O)N[C@H](CC(N)=O)C(=O)N1CCC[C@@H]1C(=O)O [gallium-68 labelled],gamma counting,"C57BL/6 mice, male, liver","intravenous, 1.85 MBq, 30 min",1.69 ± 0.24 %ID/g
CC[C@H](C)[C@H](NC(=O)[C@H](CCCNC(=N)N)NC(=O)[C@H](CCCCN)NC(=O)[C@H](Cc1ccc(O)cc1)NC(=O)[C@H](CC(=O)O)NC(=O)[C@H](C)NC(=O)CNC(=O)CCOCCOCCOCCNC(=O)CN1CCN(CC(=O)O)CCN(CC(=O)O)CCN(CC(=O)O)CC1)C(=O)N[C@H](C(=O)N[C@@H](CC(C)C)C(=O)N[C@@H](CCCCN)C(=O)N[C@H](C(=O)N[C@@H](CC(N)=O)C(N)=O)C(C)C)[C@@H](C)O [copper-64 labelled],ex vivo gamma counting,"C57BL/6J male mice, B16-F10 tumour, bone","intravenous, 1.85 MBq, 20 min",0.824 ± 0.321 %ID/g
CCCC[C@H]1C(=O)N(C)[C@@H](CCCC)C(=O)N[C@@H](CCCNC(=O)CN2CCN(CC(=O)O)CCN(CC(=O)O)CCN(CC(=O)O)CC2)C(=O)N[C@H](C(=O)NCC(N)=O)CSCC(=O)N[C@@H](Cc2ccc(O)cc2)C(=O)N(C)[C@@H](C)C(=O)N[C@@H](CC(N)=O)C(=O)N2CCC[C@H]2C(=O)N[C@@H](Cc2c[nH]cn2)C(=O)N[C@@H](CC(C)C)C(=O)N(C)CC(=O)N[C@@H](Cc2c[nH]c3ccccc23)C(=O)N[C@@H](CO)C(=O)N[C@@H](Cc2c[nH]c3ccccc23)C(=O)N1C [gallium-68 labelled],,"NOD/SCID mice with CHO-hPD-L1 xenograft, pancreas",10 min post injection,2.04 ± 0.15 %ID/g
[2H]C([2H])([18F])[C@]([2H])(N)C(=O)O,PET,"athymic nude mice, U-87 MG, muscle","dose not given, 60 min post-injection",0.71 ± 0.09 %ID/cc
CC[C@H](C)[C@H](NC(=O)[C@H](CCCNC(=N)N)NC(=O)[C@H](CCCCN)NC(=O)[C@H](Cc1ccc(O)cc1)NC(=O)[C@H](CC(=O)O)NC(=O)[C@H](C)NC(=O)CNC(=O)CCOCCOCCOCCNC(=O)CN1CCN(CC(=O)O)CCN(CC(=O)O)CCN(CC(=O)O)CC1)C(=O)N[C@H](C(=O)N[C@H](C(=O)N[C@@H](CCCCN)C(=O)N[C@H](C(=O)N[C@@H](CC(N)=O)C(N)=O)C(C)C)C(C)C)[C@@H](C)O [copper-64 labelled],ex vivo gamma counting,"C57BL/6J male mice, B16-F10 tumour, bone","intravenous, 1.85 MBq, 100 min",0.508 ± 0.049 %ID/g
C[C@H](O)[C@@H](NC(=O)[C@H]1CCCN1C(=O)[C@@H](CCCCN)NC(=O)[C@@H](CO)NC(=O)[C@@H](Cc1ccc(O)cc1)NC(=O)[C@@H](CC(N)=O)NC(=O)CCOCCOCCOCCNC(=O)CN1CCN(CC(=O)O)CCN(CC(=O)O)CCN(CC(=O)O)CC1)C(=O)N[C@H](CC(=O)O)C(=O)N[C@H](CCCNC(=N)N)C(=O)N[C@H](CCC(N)=O)C(=O)N[C@H](Cc1ccc(O)cc1)C(=O)N[C@H](Cc1c[nH]cn1)C(=O)N[C@H](Cc1ccccc1)C(N)=O [copper-64 labelled],,"C57BL/6J mice, liver","intravenous, 1.85 MBq, 1.333 h, radiolabelled",1.29 ± 0.08 %ID/g
CC[C@H](C)[C@H](NC(=O)[C@@H](Cc1c[nH]c2ccccc12)NC(=O)[C@@H]1CCCN1C(=O)[C@H](CCCCN)NC(=O)[C@H](CCCCN)NC(=O)CCNC(=O)CCNC(=O)CN1CCN(CC(=O)O)CCN(CC(=O)O)CCN(CC(=O)O)CC1)C(=O)N[C@@H](C[Si](C)(C)C)C(=O)O [gallium-68 labelled],ex vivo biodistribution,"nude mice, HT-29 xenograft, intestine","90 min, together with: levocabastine 0.5 µmol",0.57 ± 0.1 %ID/g
